# Measured values collected from several papers.
# Parts stem from different laboratories: compare values within a part only. Several values in a cell are separate wells, animals, samples, runs or records.

# Set 1 — observed: enzyme activity; action: inhibitor; concentration: 20 µM; notes: hit confirmation
# Target: Replicase polyprotein 1ab, main protease (rep, Severe acute respiratory syndrome coronavirus 2, UniProt P0DTD1)
SMILES,inhibition
CN1CCN(C(=O)c2ccc(-c3ccc4c(C=O)c(O)ccc4c3)s2)CC1,71.9%
C[Se]CCC(N)C(=O)O (stereo not drawn),-2.9%
Oc1ccc2c3c1O[C@H]1c4[nH]c5c(c4C[C@@]4(O)[C@@H](C2)N(CC2CC2)CC[C@]314)C[C@@]1(O)[C@H]2Cc3ccc(O)c4c3[C@@]1(CCN2CC1CC1)[C@H]5O4,60.4%
CC(C)N(CCC(=O)c1ccc2ccccc2c1)Cc1ccccc1,43.3% and 78.2%

# Set 2 — technique: universal PBM; form: double-stranded DNA, one strand shown; medium: in vitro; concentration: 600 nM; direction: higher = stronger binding
# Target: Sal-like protein 4, full length isoform A (SALL4, Homo sapiens, UniProt Q9UJQ4, residues 1-1053)
# Sequence of UniProt Q9UJQ4 (whole entry, looked up): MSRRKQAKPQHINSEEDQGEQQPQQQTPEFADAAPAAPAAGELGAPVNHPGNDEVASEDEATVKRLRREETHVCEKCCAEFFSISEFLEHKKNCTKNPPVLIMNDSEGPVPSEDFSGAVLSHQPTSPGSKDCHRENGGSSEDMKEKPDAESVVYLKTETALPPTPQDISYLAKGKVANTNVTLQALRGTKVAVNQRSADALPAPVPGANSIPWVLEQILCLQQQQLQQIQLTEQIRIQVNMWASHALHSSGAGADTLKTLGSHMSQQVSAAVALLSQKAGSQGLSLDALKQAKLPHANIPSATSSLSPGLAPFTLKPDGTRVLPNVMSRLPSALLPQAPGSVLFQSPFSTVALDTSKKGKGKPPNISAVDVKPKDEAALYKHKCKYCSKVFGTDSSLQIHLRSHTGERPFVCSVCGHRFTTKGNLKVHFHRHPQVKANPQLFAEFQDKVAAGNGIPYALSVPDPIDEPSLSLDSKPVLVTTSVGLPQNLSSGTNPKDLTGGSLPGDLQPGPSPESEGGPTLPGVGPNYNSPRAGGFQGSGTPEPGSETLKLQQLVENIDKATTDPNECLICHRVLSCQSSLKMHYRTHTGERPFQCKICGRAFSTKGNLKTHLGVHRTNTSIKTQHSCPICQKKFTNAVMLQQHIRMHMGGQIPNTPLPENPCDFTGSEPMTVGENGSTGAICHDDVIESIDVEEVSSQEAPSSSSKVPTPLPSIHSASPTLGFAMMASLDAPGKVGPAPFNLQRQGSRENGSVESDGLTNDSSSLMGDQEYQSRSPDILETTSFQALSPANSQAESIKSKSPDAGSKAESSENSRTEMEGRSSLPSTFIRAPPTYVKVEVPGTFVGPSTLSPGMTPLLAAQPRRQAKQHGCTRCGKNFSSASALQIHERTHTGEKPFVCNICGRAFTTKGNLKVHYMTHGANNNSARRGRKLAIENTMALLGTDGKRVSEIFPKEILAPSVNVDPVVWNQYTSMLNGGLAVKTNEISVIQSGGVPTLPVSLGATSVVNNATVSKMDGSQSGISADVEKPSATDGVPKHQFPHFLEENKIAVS
# Notes: 8-mer, flanks averaged, mean of replicates
Strand,E-score
ACGAGTTG,0.0169
TATGCCAA,0.187
CAAATGCC,-0.194
AGCTCTAC,-0.165
AGGGACCC,-0.3

# Set 3 — technique: protein binding microarray; form: double-stranded DNA, one strand shown; medium: in vitro; concentration: not given; relative to: not given; direction: higher = stronger binding
# Target: Histone acetyltransferase KAT6A, winged helix 1, GST fusion (KAT6A, Homo sapiens, UniProt Q92794, residues 1-85)
# Notes: 8-mer, flanks averaged, mean of 2 arrays, mostly near background
# Construct (chain): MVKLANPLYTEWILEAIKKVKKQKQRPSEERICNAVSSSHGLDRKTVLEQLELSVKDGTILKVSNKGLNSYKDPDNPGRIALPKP
Strand,E-score
AACCCTCG,-0.0347
GATTGTTA,-0.0434
AACGCATG,0.056
ATATCCTG,-0.269
CCGGTTGA,0.193
ATCAGGGG,-0.155
CAACCTCG,-0.0101
AGCCTAAA,-0.258

# Set 4 — cell line: HEK-293T; organism: VSV pseudotyped with SARS-CoV-2 spike; concentration: 10 µM; time: 16 h
Compound,pseudovirus infection [%]
CCCNCC(O)COc1ccccc1C(=O)CCc1ccccc1 (stereo not drawn),46.2
CCCCS(=O)(=O)N[C@@H](Cc1ccc(OCCCCC2CCNCC2)cc1)C(=O)O,78.2
CC(C)NCC(O)COc1ccc(CCOCC2CC2)cc1 (stereo not drawn),128
CC(C(=O)O)c1cccc(C(=O)c2ccccc2)c1 (stereo not drawn),84.9

# Set 5 — observed: enzyme activity; action: inhibitor; concentration: 20 µM
# Target: Replicase polyprotein 1ab, polymerase (rep, Severe acute respiratory syndrome coronavirus 2, UniProt P0DTD1)
SMILES,inhibition
O=C1S/C(=C\c2ccc(OCc3cccc(B(O)O)c3)cc2)C(=O)N1Cc1ccc(F)cc1,-2.25%
O=C1C=C2C=C[C@@H]3C[C@@]2(O1)[C@H]1CCCCN31,-4.93%
OC[C@H]1O[C@H](O[C@]2(CCl)O[C@H](CCl)[C@@H](O)[C@@H]2O)[C@H](O)[C@@H](O)[C@H]1Cl,-3.5%
C[n+]1cc2c3c(ccc2c2ccc4cc5c(cc4c21)OCO5)OCO3,11.8%
Cc1cc(NC(=O)Nc2ccc(N(C)C)cc2)c2cc(F)cc(F)c2n1,-2.81%
COc1nccc(-c2c(-c3ccc(F)cc3)ncn2C2CCNCC2)n1,-4.25%
NS(=O)(=O)NCc1csc2ccccc12,0.21%
COc1ccc2[nH]c3c(-c4cccc5ccccc45)nccc3c2c1,-2.81%
CO[C@@]1(NC(=O)CSCC#N)C(=O)N2C(C(=O)O)=C(CSc3nnnn3C)CS[C@@H]21,16.9%
CCn1cnc(C(=O)NC)c1C(=O)NC,-6.74%
CC(C)OC(=O)CNC(=O)[C@H](CS)NC(=O)CC[C@H](N)C(=O)O,1.96%
Nc1nccc(Oc2ccc(NC(=O)c3c[nH]cc(-c4ccc(F)cc4)c3=O)cc2F)c1Cl,-9.53%
NC(=O)CCCCC1CCSS1 (stereo not drawn),-2.24%
CCOC(=O)c1ccc(N)cc1,-1.43%
CC(C)Oc1ccc(Cc2ccc(NC3=NCCN3)cc2)cc1,-4.85%
O=C(Nc1nc(-c2cc(Cl)cs2)c(N2CCN(C3CCCCC3)CC2)s1)c1cnc(N2CCC(C(=O)O)CC2)c(Cl)c1,1.2%
CCCCC#Cc1nc(NC)c2ncn([C@@H]3O[C@H](CO)[C@@H](O)[C@H]3O)c2n1,-7.6%
CC(CNC1CCCCC1)OC(=O)c1ccccc1 (stereo not drawn),3.65%
COc1cc2c(NC3CCN(CC4CCCCC4)CC3)nc(N3CCCN(C(C)C)CC3)nc2cc1OCCCN1CCCCC1,-2.02%
CC(=O)O[C@@]12CO[C@@H]1C[C@@H](O)[C@@]1(C)C(=O)[C@H](O)C3=C(C)[C@@H](O)C[C@@](O)([C@@H](OC(=O)c4ccccc4)[C@H]21)C3(C)C,8.53%
CCOC(=O)COc1ccc2c(=O)cc(-c3ccccc3)oc2c1,-16%
C[C@@H]1CCO[C@H]2Cn3cc(C(=O)NCc4ccc(F)cc4F)c(=O)c(O)c3C(=O)N12,-3.32%
O=c1c(-n2ccnn2)c[nH]n1-c1cc(N2CCOCC2)ncn1,22.3%
CCCCCCCCCCCCCCCCCCCCCC(=O)O,2.78%
CCCCCNC(=N)N/N=C/c1c[nH]c2ccc(OC)cc12,-1.81%

# Set 6 — technique: RNA Bind-n-Seq; form: RNA; medium: in vitro; concentration: 365 nM; relative to: no-protein control; direction: higher = stronger binding
# Target: RNA binding protein fox-1 homolog 2, RRM domain, GST-SBP tag (RBFOX2, Homo sapiens, UniProt O43251-10, residues 100-194)
# Notes: natural RNA segment, single round, ends assumed
# Shared flanks, not repeated: GGGAGUUCUACAGUCCGACGAUC … UGGAAUUCUCGGGUGCCAA
# Construct (chain): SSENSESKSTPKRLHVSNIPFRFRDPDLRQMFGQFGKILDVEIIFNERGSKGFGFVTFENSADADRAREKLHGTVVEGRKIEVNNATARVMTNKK
Strand,RBNS enrichment (R)
UACUGAUCCAAACACAAGACGGUCAGAGGAGCCCUGGCAUCCUUCACUCUUAUAGGCCUACAUGCAGAUGGGCUUGAAGAGAAUUGGCCUUUCAUUUUUCACGCUCGUAU,1.18
AAGGGAGAGGAAGACAUUUUGAAUUUUAAGAGCUUUAUUAUCAGUUUAACCCUCCCUAGUUGAAUGUUAUUUUCUUCUUGUUCCAUUAAGUCAGAAUACAAAUCAGCACA,0.459
GCACGGUUUGGAAAUAUUCACAUCGCUUCUGUGUAUCUCUUUCACAUUGUUUGCUGCUAUUGGAGGAUCAGUUUUUUGUUUUACAAUGUCAUAUACUGCCAUGUACUAGU,2.84
GCUAGCAAAGACUUGUGUGAUGCCUCCGAAGGGGCUCUGAGUUCUGGGGUGGGAGUUUUGCUCUCUGUCAGGUGUGAUAAAAUGUUGAACCCUCCCCACCACCACUUUUU,0.85
UUGGGCCCAGAAAGGGGUUUCCAGCUGGGGGCACGUGGACUGGUUCUGCUGUUUUUGGCAGUCGCUUUUCUGAAUUCUCCCCUCCGGCAGCCUUCCAGAGACUGAUCCUG,0.306
UGGAAUUAGCACCUGCCUGUCCUUCCUGGGCCCCUCCUUGCCACAUCAUGAGCUGAGGUGGGACCACAGUCCCCAGGCUGCAUCGGCCUGCCUGUGUUUCCCUCUUAGGU,0.443
UCCUACACUGUAUUUUGGCGCAUGUUGGUGGCCCUCUGUGCCCUAGAUAUAUGCACACAGGGUGCAAGUUAAAAGCUACAGAGUGAAAGUUGGUUUGGAUCCUCUUCAUU,6.85
ACAGCCUGCUUCUAAUACCUUCUUUCCCUACCACCUAGUUCCAAAUGGAACCAACAAGUUGAGUGCAUCUCUGUUGGGUGUUUUGUGUUGAGACUGGCUGAAGUGAAGAA,0.585

# For quick reference, copied from above (set 6):
Strand,RBNS enrichment (R)
GCUAGCAAAGACUUGUGUGAUGCCUCCGAAGGGGCUCUGAGUUCUGGGGUGGGAGUUUUGCUCUCUGUCAGGUGUGAUAAAAUGUUGAACCCUCCCCACCACCACUUUUU,0.85
UGGAAUUAGCACCUGCCUGUCCUUCCUGGGCCCCUCCUUGCCACAUCAUGAGCUGAGGUGGGACCACAGUCCCCAGGCUGCAUCGGCCUGCCUGUGUUUCCCUCUUAGGU,0.443
AAGGGAGAGGAAGACAUUUUGAAUUUUAAGAGCUUUAUUAUCAGUUUAACCCUCCCUAGUUGAAUGUUAUUUUCUUCUUGUUCCAUUAAGUCAGAAUACAAAUCAGCACA,0.459
UACUGAUCCAAACACAAGACGGUCAGAGGAGCCCUGGCAUCCUUCACUCUUAUAGGCCUACAUGCAGAUGGGCUUGAAGAGAAUUGGCCUUUCAUUUUUCACGCUCGUAU,1.18
GCACGGUUUGGAAAUAUUCACAUCGCUUCUGUGUAUCUCUUUCACAUUGUUUGCUGCUAUUGGAGGAUCAGUUUUUUGUUUUACAAUGUCAUAUACUGCCAUGUACUAGU,2.84
ACAGCCUGCUUCUAAUACCUUCUUUCCCUACCACCUAGUUCCAAAUGGAACCAACAAGUUGAGUGCAUCUCUGUUGGGUGUUUUGUGUUGAGACUGGCUGAAGUGAAGAA,0.585
